Published values gathered from unrelated publications.
Parts stem from different laboratories: compare values within a part only. Changes are numbered by the printed parent chain.

Block 1 — method: RNA Bind-n-Seq; form: RNA; matrix: in vitro; tested at: 365 nM; baseline: no-protein control; reading: higher = stronger binding; quantity: RBNS enrichment (R)
Target: RNA binding protein fox-1 homolog 2, RRM domain, GST-SBP tag (RBFOX2, Homo sapiens, UniProt O43251-10, residues 100-194)
Notes: natural RNA segment, single round, ends assumed
All sequences stand within: GGGAGUUCUACAGUCCGACGAUC … UGGAAUUCUCGGGUGCCAA
Construct (chain): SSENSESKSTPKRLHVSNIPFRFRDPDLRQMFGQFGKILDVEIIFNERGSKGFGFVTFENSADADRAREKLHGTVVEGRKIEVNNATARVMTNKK
UGUUCUUGAGAUAGACUUUAAAAUGAACCAGCUCUGAAAAGUACUUCUGCUGCUCUGGUCUAUCCCUGAAAACAGAUGUCUUGAAACACUUUUCAUAUUCUUAAAAUAAU: 0.401
CAGAAAAGAGCCGGAGCUCUAAUGCAGGCUGUGUGGCCGCCCUUGUCUUAGGCUCAUUUGUUCCUUACCAUUUUGUCGAGGUUUUUUGGGGGGUAGUGACAGAAUCCCUG: 0.556
UGUUUUGUUUUCCUUUUUCUUUAAAUCUUGGACUUUAAACCCUACCUGUGUGAUUCAGUAGGGUUUGAGACUUACGUGUGAUACUGACAGGUAAGCAACAGUGCUAGCAU: 0.245
GACUUGGUCAAGUGAGCAACUGAUUCUUGUUUUUAGCAACUCAAAACAUAAAAAGAUCAGGAGAGCAUGACACGGUCUCUUUGUGGCCAGUCAGAAAAGCAAACUAACAG: 14.6
UCUCCUGCCUACUCACGAUAAAUAAUCGGCCCACAGCUCCCACCCCACCCCCUUCAGUGCCCACCAACAUCCCAUUGCCCUGGUUAUAUUCUCACGGGCAGUAGCUGUGG: 0.232
UCAUAAUUUAAUAAAACGCUUACUAGAAAGACCAUUACAGAUCCCAAACACUUGGGUUUGGUGACCCUGUCUUUCUUAUAUGACCCUACAAUAAACAUUUGAAGGCAGCA: 0.617
CAUGAAUUAGAUUUUACUGCUUGUCAUUUUGUUAUUUUCUUACCAAGUGCAUUGAUAUGUGAAGUAGAAUGAAUUGCAGAGGAAAGUUUUAUGAAUAUGGUGAUGAGUUA: 0.319
CUGCCCACAUCCUUGCAUCACUGUUUGCCCUGCCUAUCUCUUUCCAAAUUGUCAACUCCCUUGCCCAAUACUGGUGGGCUGUGAACAGCCUAAGGGACCUCGCUCCAGCU: 1.6
CGGAGUAACUGGCUUAAGGGGUUAAUGUGAGGCCUUACACAGUUGACGCAUAUACAUGAUUCUCAUAUUUAUUGUGUAAAUUGGCUUUAAUACACUUGGAUCACAUUCAC: 0.409
CAGCAGCAGCUGCACUGGAACAGUCAGAGCAGGGAGCCUCUUCCUCAACCCAGCUUUUUGUCAUUCACUUCCUUUUGUUCUCUCUCUGGUCACUGCCCUUACCUGACCCU: 1.14
AUGCAAAUAGAUUUAAUUCCUAUUUACUUUAAGAAUGAAAAACAAUGUUCAUUUUCCUACCUAAACAGGGUGGUUCAACAUAAAGGCUGAUGUUGUGUCCGUUUUGUAUU: 0.432
GACAUCUUCAAGGGUAGAACUAAUCUGAAACCCCAUUCAGCCUAUUCCAGAAUGGGGAUAGGCUGAAACCCCCUUCCAGCCUCUGGAAGACACUGGCCUGCAUCAGUUAG: 0.619

Block 2 — method: aptamer microarray, sandwich; form: DNA with 2'F-ANA; matrix: in vitro; tested at: 200 nM; together with: Cy3 exosite-II aptamer, 400 nM; reading: higher = stronger binding; quantity: mean fluorescence intensity; oligonucleotide: GGTTGGTGTGGTTGG
Target: Prothrombin, mature alpha-thrombin (F2, Homo sapiens, UniProt P00734)
Notes: whole 15-mer aptamer, many near background
2'F-ANA at 2 3 4 5 6 7 8 11 14 15: 49.5 a.u.
2'F-ANA at 3 6 8 11 12 14: 644 a.u.
2'F-ANA at 1 7 8 11 15: 236 a.u.
2'F-ANA at 1 4 5 9 10 11 12: 47.4 a.u.
2'F-ANA at 2 3 8 11 12 14 15: 382 a.u.
2'F-ANA at 2 3 5 6 8 10 11: 48.2 a.u.
2'F-ANA at 1 2 6 9 11 12 13 14: 56.2 a.u.
2'F-ANA at 2 3 6 7 8 10 11 13 15: 284 a.u.
2'F-ANA at 3 5 6 7 8 9 10 12 14 15: 50.1 a.u.
2'F-ANA at 1 2 5 8 9 12 13 15: 80.2 a.u.
2'F-ANA at 4 5 9 10 11 14 15: 78.8 a.u.
2'F-ANA at 1 2 3 4 5 6 8: 65.6 a.u.
2'F-ANA at 2 3 4 7 10 11 12 13 14 15: 206 a.u.
2'F-ANA at 6 10: 185 a.u.
2'F-ANA at 1 3 4 5 6 7 8 10 14 15: 72.2 a.u.
2'F-ANA at 1 2 3 4 5 6 8 9 12 15: 128 a.u.
2'F-ANA at 3 4 6 8 10 11: 233 a.u.
2'F-ANA at 2 4 6 7 9 10 11 12 13 14: 73.5 a.u.
2'F-ANA at 1 3 4 7 9 10 11 12 13 14: 53.9 a.u.
2'F-ANA at 1 3 5 8 9 11 15: 61.4 a.u.
2'F-ANA at 2 4 6 12 15: 547 a.u.
2'F-ANA at 1 2 5 6 9 10 11 14 15: 52.6 a.u.
2'F-ANA at 3 4 6 11 12 13: 621 a.u.
2'F-ANA at 3 5 6 9 10 12 15: 78 a.u.
2'F-ANA at 2 4 5 7 9 10 12 13: 73 a.u.

Block 3 — method: protein binding microarray; form: double-stranded DNA, one strand shown; matrix: in vitro; tested at: not given; baseline: not given; reading: higher = stronger binding; quantity: E-score
Target: Histone acetyltransferase KAT6A, both winged helices, GST fusion (KAT6A, Homo sapiens, UniProt Q92794, residues 1-181)
Notes: 8-mer, flanks averaged, mean of 2 arrays, mostly near background
Residues (chain): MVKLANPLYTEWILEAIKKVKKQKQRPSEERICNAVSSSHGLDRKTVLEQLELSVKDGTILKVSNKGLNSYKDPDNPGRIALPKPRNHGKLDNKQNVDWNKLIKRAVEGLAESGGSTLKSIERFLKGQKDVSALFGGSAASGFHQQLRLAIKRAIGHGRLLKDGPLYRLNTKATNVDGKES
AGGAATAC: -0.0633
GCGGTTCA: 0.22
ATAGGCGG: 0.217
AGAATTGC: 0.0233
GAAAAGCA: -0.0852
CATGCCGC: 0.323
AGAACTCG: -0.119
CCGCGAAA: 0.317
CAAGGGAC: -0.0917
CCACCGTC: 0.0737
CCTGACCC: 0.0193
ATCTTAGC: 0.0264
AAGTCTAC: -0.198
AAGTGAGA: -0.0414
AAGTCCGC: 0.268
AACCTAGA: 0.0102
GGCCACCC: -0.0307
ACAATAAG: -0.0636
CGATATCA: -0.00697
ACGTGAGA: -0.166
CTCGCACA: 0.0348
CGATTCCG: 0.255
GCTCAAGC: -0.0184
AAATTAAT: -0.115
ATGAGGAC: -0.0386

Block 4 — method: protein-binding microarray; form: double-stranded DNA, one strand shown; matrix: in vitro; tested at: 2540 nM top; notes: 60-bp whole probe; together with: salmon DNA 0.4 mg/ml; baseline: random background probes; reading: higher = stronger binding; quantity: fitted relative affinity; all sequences stand within: GCCTAGCAC … GTCTTGATTCGCTTGACGCTGCTG
Target: Interferon regulatory factor 3, full length, phosphomimetic (IRF3, Homo sapiens, UniProt Q14653, residues 1-427, S386D/S396D/S398D/S402D/T404D/S405D)
Target sequence (chain): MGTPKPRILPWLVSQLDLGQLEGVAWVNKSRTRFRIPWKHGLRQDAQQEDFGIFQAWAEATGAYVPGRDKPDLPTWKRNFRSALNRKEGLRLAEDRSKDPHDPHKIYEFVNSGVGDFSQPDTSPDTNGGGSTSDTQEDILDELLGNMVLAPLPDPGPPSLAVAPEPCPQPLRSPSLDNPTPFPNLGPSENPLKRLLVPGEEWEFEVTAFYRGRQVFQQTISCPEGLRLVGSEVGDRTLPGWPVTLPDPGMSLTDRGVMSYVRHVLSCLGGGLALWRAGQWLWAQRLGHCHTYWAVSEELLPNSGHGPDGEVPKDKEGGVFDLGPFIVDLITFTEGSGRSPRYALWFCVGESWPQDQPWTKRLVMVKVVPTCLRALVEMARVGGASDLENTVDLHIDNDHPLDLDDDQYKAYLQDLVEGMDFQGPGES
GACTATTTCGGGTATCGAGACGTGCTA: 1.21 z-score
TCAAAGCTTCCTCTCTGACTGTGCTAG: -0.359 z-score
TCATTTTCATTTTCCAAACTGTGCTAG: 5.71 z-score
GACGGTCTCGGGCTGGGGACGTGCTAG: -0.377 z-score
TTAGATATCGGTACTGGATTAGTGCTA: 1.05 z-score
TTAGGTCTCGGACGGGGTTAGTGCTAG: -0.626 z-score
GACGGACTGCTACCGCTGACGTGCTAG: -0.728 z-score
TCAATATTATATCTGTGACTGTGCTAG: 0.305 z-score
TCAGGTCTCTTGTTCTCACTGTGCTAG: 0.222 z-score
TCACCTTTGAAAGTTGTTACTGTGCTA: 0.311 z-score
TTATGACTGGACACTGGGTTAGTGCTA: -0.441 z-score
TTAGGTATCCGTCTCGGTTAGTGCTAG: 4.84 z-score
GACGGTCTCGGTCGCGGGACGTGCTAG: 0.0869 z-score
ATAGATTTCAGTTCCGATTAGTGCTAG: 3.74 z-score
CCCTTACCGCATATCGGGGTGTGCTAG: 1.45 z-score
TTACAACTGAGTCTCGATTAGTGCTAG: -0.203 z-score
TCACTCATACATCTGGGACTGTGCTAG: -0.00569 z-score
ATATATATGAATATATATTAGTGCTAG: 0.591 z-score
TTAGAACTGAGCCTCGATTAGTGCTAG: -0.511 z-score
GACGGTATCCTTTGCCTGACGTGCTAG: 2.63 z-score
AGGCATCTCGGAGATCTCGAAGTGCTA: -1.08 z-score
GACGGTTTCCTTTACCTGACGTGCTAG: 6.69 z-score
CTCCTTCTCTAACCTCTCTAAGTGCTA: 2.31 z-score

Block 5 — target: CCNE1, cyclin fold, Cln2 fusion (human); method: yeast growth competition, sequencing; matrix: yeast; notes: strong parent motif; baseline: not given; reading: higher = stronger binding; quantity: normalised enrichment score
Parent: E2F1 docking peptide (human); PPVKRRLDLETDH; partner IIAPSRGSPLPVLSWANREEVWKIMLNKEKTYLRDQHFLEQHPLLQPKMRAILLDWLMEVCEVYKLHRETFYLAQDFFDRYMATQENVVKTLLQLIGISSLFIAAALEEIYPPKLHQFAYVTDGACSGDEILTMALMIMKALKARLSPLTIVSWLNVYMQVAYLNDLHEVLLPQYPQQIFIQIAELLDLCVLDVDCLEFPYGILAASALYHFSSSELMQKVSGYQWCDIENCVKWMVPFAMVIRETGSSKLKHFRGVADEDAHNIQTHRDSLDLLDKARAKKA
PPVKRRLDLETNH [D12N]: 1.36
PPVKRRLDLETTH [D12T]: 1.44
PPVKRRLDLETDY [H13Y]: 2.18
PPVKRRGDLETDH [L7G]: -0.704
PDVKRRLDLETDH [P2D]: 1.33
PPVKIRLDLETDH [R5I]: -0.123
PPVKRRLDLCTDH [E10C]: 1.82
PPVKRMLDLETDH [R6M]: 0.784
PPVKRRLDLETDI [H13I]: 2.5
PPVKRRLDLETDL [H13L]: 2.22
PQVKRRLDLETDH [P2Q]: 0.954
PPEKRRLDLETDH [V3E]: 0.436
PPVKRRLDLWTDH [E10W]: 1.44
PPVKSRLDLETDH [R5S]: -0.449
WPVKRRLDLETDH [P1W]: 2.47
PPVCRRLDLETDH [K4C]: 2.76
PPVKRELDLETDH [R6E]: 0.916
PPYKRRLDLETDH [V3Y]: 0.994
PPVKRRLDLEIDH [T11I]: 2.12
PPLKRRLDLETDH [V3L]: -1.11
PPVKRRLDLEQDH [T11Q]: 1.22
PPVKRRLDFETDH [L9F]: 6.66
PPVKRRLCLETDH [D8C]: 1.54
PPVKRRLWLETDH [D8W]: 4.87
PPVKRRLILETDH [D8I]: 1.68

For quick reference, copied from above (block 3):
AGGAATAC: -0.0633
GGCCACCC: -0.0307
ATCTTAGC: 0.0264
ACAATAAG: -0.0636
AGAACTCG: -0.119
GCGGTTCA: 0.22
CTCGCACA: 0.0348
AAGTGAGA: -0.0414
ATGAGGAC: -0.0386
CCGCGAAA: 0.317
AGAATTGC: 0.0233
AAGTCCGC: 0.268
CCTGACCC: 0.0193
CCACCGTC: 0.0737
CGATTCCG: 0.255
ACGTGAGA: -0.166
